Published values from different studies.
Compare with care: the assays were run in different laboratories. Values joined by “and” are separate records of one study, mostly repeats; a detail may differ. Numbers after ± are the reported error.

CO[C@H]1C[C@@H]2CC[C@@H](C)[C@@](O)(O2)C(=O)C(=O)N2CCCC[C@H]2C(=O)O[C@H]([C@H](C)C[C@@H]2CC[C@@H](OC(=O)NCCOCCOCCOCCOCCOCCOCCOCCOCCC(=O)N3CCc4cc(Cn5nc(-c6ccc7oc(N)nc7c6)c6c(N)ncnc65)ccc4C3)[C@H](OC)C2)C[C@@H](O)[C@H](C)/C=C(\C)[C@@H](O)[C@@H](OC)C(=O)[C@H](C)C[C@H](C)/C=C/C=C/C=C/1C  incidence of Fatigue TRAE (patients with advanced solid tumours; intravenous, dose not given, grade ≥3): 3.5%
COc1cccc(Oc2ccccc2NC(=O)CNC(=O)c2cccc3ccccc23)c1  mean corpuscular hemoglobin (esterase-deficient SCID mice, male, blood; oral, 40 mg/kg/day, 14 days, toxicity study): 15.1 pg and 14.8 pg
O=C(c1ccc(F)c(F)c1Nc1ccc(I)cc1F)N1CC(O)([C@@H]2CCCCN2)C1  fatal adverse events (patients aged 2 to 6 years; oral, dose not given): 0%
CC(=O)c1c(C)c2cnc(Nc3ccc(C4CCN(CCS(C)(=O)=O)CC4)cn3)nc2n(C2CCCC2)c1=O  clearance (human, dose-escalation trial, plasma; oral, 25 mg twice daily, day 1, single dose): 1290 mL/min
COc1ncnn2ccc(-c3cnc4nc(C)n(Cc5nnc([C@@H](C)F)o5)c4c3)c12  patients with decreased WBC count (phase 1 trial; human patients; oral, dose not given, CTCAE grade 5): 0%
CCCCCCCCCCCCCCCC(=O)N[C@@H](CCC(=O)NCCCC[C@H](NC(=O)[C@H](CC(=O)O)NC(=O)[C@H](CO)NC(=O)[C@@H](NC(=O)[C@H](Cc1ccccc1)NC(=O)[C@@H](NC(=O)CNC(=O)[C@H](CCC(N)=O)NC(=O)[C@H](CO)NC(=O)[C@@H](N)Cc1c[nH]cn1)[C@@H](C)O)[C@@H](C)O)C(=O)N[C@@H](CO)C(=O)N[C@@H](CCC(=O)O)C(=O)N[C@@H](Cc1ccc(O)cc1)C(=O)N[C@@H](CC(C)C)C(=O)N[C@@H](CC(=O)O)C(=O)N[C@@H](CO)C(=O)N[C@@H](CCC(=O)O)C(=O)N[C@@H](CCCNC(=N)N)C(=O)N[C@@H](C)C(=O)N[C@@H](CCCNC(=N)N)C(=O)N[C@@H](CC(=O)O)C(=O)N[C@@H](Cc1ccccc1)C(=O)N[C@H](C(=O)N[C@@H](C)C(=O)N[C@@H](Cc1c[nH]c2ccccc12)C(=O)N[C@@H](CC(C)C)C(=O)N[C@@H](CCC(=O)O)C(=O)N[C@@H](C)C(=O)NCC(=O)NCC(=O)O)C(C)C)C(=O)O  atrial fibrillation (human, CrCl ≥20 to <30 mL/min; sc, 100 µg single dose): 0%
N=C(N)NCCC[C@@H](NC(=O)[C@@H](N)Cc1ccccc1)C(=O)N[C@@H](Cc1ccccc1)C(=O)N[C@@H](CCCCN)C(N)=O  median fraction excreted in urine (LC-MS; human; 25 mg, 23.83 h): 1.6%
CC[C@H](C)[C@@H]1NC(=O)[C@@H]2CSSC[C@H](NC(=O)[C@H](CCCNC(=N)N)NC(=O)[C@@H]3CSSC[C@H](NC1=O)C(=O)N[C@@H]([C@@H](C)O)C(=O)N[C@@H](CCCNC(=N)N)C(=O)NCC(=O)N[C@@H](Cc1ccccc1)C(=O)N3)C(=O)N[C@@H](CC(C)C)C(=O)N[C@H]1CSSC[C@H](NC(=O)[C@H](C(C)C)NC(=O)CNC(=O)[C@H](CCCNC(=N)N)NC(=O)[C@H](CCCNC(=N)N)NC1=O)C(=O)N[C@@H](CCCNC(=N)N)C(=O)N2  alveolar macrophage aggregation score (Sprague-Dawley rat, female, lung; 10 mg/kg, histopathology, multifocal; direction not given): 1 to 2
C=CCNc1c(O)cc2c(O)c1C[C@@H](C)C[C@H](OC)[C@H](O)[C@@H](C)/C=C(\C)[C@H](OC(N)=O)[C@@H](OC)/C=C\C=C(/C)C(=O)N2  patients with TEAE (measured: Diarrhea; unresectable or metastatic GIST/STS; intravenous, dose not given, all doses): 46%
COc1ncccc1-c1cnn2ccc(N3CCN(C(=O)OC(C)C)CC3)nc12  drug concentration (mouse nerve ligation model, plasma; oral, 10 mg/kg, 30 min after last dose, repeat dosing day 3): 3.4 µM
CC[C@H](C)[C@H](NC(=O)[C@H](Cc1ccccc1)NC(=O)[C@H](CCC(=O)O)NC(=O)[C@H](CCCNC(=N)N)NC(=O)[C@H](C)NC(=O)[C@H](C)NC(=O)[C@H](CCC(N)=O)NC(=O)[C@H](CCC(=O)O)NC(=O)[C@H](CCC(=O)O)NC(=O)[C@H](CC(C)C)NC(=O)[C@H](Cc1ccc(O)cc1)NC(=O)[C@H](CO)NC(=O)[C@H](CO)NC(=O)[C@@H](NC(=O)[C@H](CC(=O)O)NC(=O)[C@H](CO)NC(=O)[C@@H](NC(=O)[C@H](Cc1ccccc1)NC(=O)[C@@H](NC(=O)CNC(=O)[C@H](CCC(=O)O)NC(=O)[C@H](C)NC(=O)CCc1cnc[nH]1)[C@@H](C)O)[C@@H](C)O)C(C)C)C(=O)N[C@@H](C)C(=O)N[C@@H](Cc1c[nH]c2ccccc12)C(=O)N[C@@H](CC(C)C)C(=O)N[C@H](C(=O)N[C@@H](CCCNC(=N)N)C(=O)NCC(=O)N[C@@H](CCCNC(=N)N)C(=O)N[C@@H](CCCCNC(=O)COCCOCCNC(=O)COCCOCCNC(=O)CC[C@H](NC(=O)CCCCCCCCCCCCCCCCC(=O)O)C(=O)O)C(=O)NCC(=O)NCC(=O)N[C@@H](CO)C(=O)N[C@@H](CCCCNC(=O)[C@H](CCCCNC(=O)[C@H](CCCCNc1c(NCCCCCN(O)C(=O)CCC(=O)NCCCCCN(O)C(=O)CCC(=O)NCCCCCN(O)C(C)=O)c(=O)c1=O)Nc1c(NCCCCCN(O)C(=O)CCC(=O)NCCCCCN(O)C(=O)CCC(=O)NCCCCCN(O)C(C)=O)c(=O)c1=O)NC(=O)[C@H](CCCCNc1c(NCCCCCN(O)C(=O)CCC(=O)NCCCCCN(O)C(=O)CCC(=O)NCCCCCN(O)C(C)=O)c(=O)c1=O)Nc1c(NCCCCCN(O)C(=O)CCC(=O)NCCCCCN(O)C(=O)CCC(=O)NCCCCCN(O)C(C)=O)c(=O)c1=O)C(=O)O)C(C)C [zirconium-89 labelled]  tissue uptake (ex vivo gamma counting; Sprague-Dawley rat, male, muscle; intravenous, 1 nmol, 24 h): 0.107 %ID/g and 0.122 %ID/g and 0.103 %ID/g and 0.119 %ID/g and 0.124 %ID/g
CC(C)C[C@H](NC(=O)[C@H](CCCCN)NC(=O)OCC1c2ccccc2-c2ccccc21)C(=O)N[C@H](C(=O)N[C@@H](Cc1ccccc1)C(=O)N[C@@H](Cc1ccccc1)C(=O)N[C@@H](CCCCN)C(=O)NCC(=O)N[C@@H](Cc1ccccc1)C(=O)N[C@@H](C)C(=O)N[C@@H](Cc1c[nH]c2ccccc12)C(=O)N[C@@H](CC(N)=O)C(=O)N[C@H](C(=O)N[C@H]1CSSC[C@@H](C(=O)N[C@@H](Cc2c[nH]cn2)C(=O)N[C@@H](CCCNC(=N)N)C(=O)N[C@@H](CCCNC(=N)N)C(=O)N[C@@H](C)C(=O)N[C@@H](CC(N)=O)C(N)=O)NC(=O)[C@H](C(C)C)NC(=O)[C@H](CCCNC(=N)N)NC(=O)[C@H](C(C)C)NC(=O)CNC(=O)[C@H](CC(N)=O)NC(=O)[C@H](CCCNC(=N)N)NC(=O)[C@H](Cc2ccc(O)cc2)NC(=O)[C@H](C(C)C)NC1=O)C(C)C)C(C)C  mean corpuscular haemoglobin (ICR mice, blood; intraperitoneal, 10 mg/kg, day 5): 13.7 ± 0.16 pg
COc1ccc([C@@H]2CC(=O)c3c(O)cc(O)cc3O2)cc1O  faecal excretion (Sprague-Dawley rat, male, lean, faeces; oral, 100 mg/kg neohesperidin, 36-48 h): 59.9 ± 44.6 ng
C[C@]1(O)C[C@@](N)(c2ccc(-c3nc4n(c3-c3ccccc3)COc3ccncc3-4)cc2)C1  patients with Fatigue TEAE (human, advanced or metastatic solid tumours; 16 mg once daily, dose-response cohort): 100%
COc1cc(C2C3=C(COC3=O)N(CCO)c3cc4c(cc32)CCC4)cc(OC)c1OC (stereo not shown)  body weight (female C57BL/6 mice; intraperitoneal, 100 mg/kg, 0 h, single dose, mean): 23 g
N#C/N=C1\SCCN1Cc1ccc(Cl)nc1  recovery (soil; 56 days, nominal 1.1): 1.8%
C[C@]1(CO)Cc2ncn(-c3ccc(C#N)c(Cl)c3)c2C(=O)O1  subjects with drug-related orthostatic hypotension (human, Chinese; 3 mg single dose): 0%
O=C(Oc1ccc(Cl)cc1)[c-]1cccc1.[Fe+2].c1cc[cH-]c1  oxidation potential (cyclic voltammetry; methanol/DMEM 1:1 with TBAPF6; Pt disk electrode, Ag/AgCl reference, with: scan rate 100 mV/s): 570 mV
CC(C)[C@@H]1NC(=O)CNC(=O)[C@H](CC(N)=O)NC(=O)[C@H](CCCNC(=N)N)NC(=O)[C@H](Cc2ccc(O)cc2)NC(=O)[C@H](C(C)C)NC(=O)[C@@H](NC(=O)[C@@H](NC(=O)[C@H](CC(N)=O)NC(=O)[C@H](Cc2c[nH]c3ccccc23)NC(=O)[C@H](C)NC(=O)[C@H](Cc2ccccc2)NC(=O)CN)C(C)C)CSSC[C@@H](C(=O)N[C@@H](Cc2cnc[nH]2)C(=O)N[C@@H](CCCNC(=N)N)C(=O)N[C@@H](CCCNC(=N)N)C(=O)N[C@@H](C)C(=O)N[C@@H](CC(N)=O)C(N)=O)NC(=O)[C@H](C(C)C)NC(=O)[C@H](CCCNC(=N)N)NC1=O  haematocrit (ICR mice, blood; intraperitoneal, 10 mg/kg, day 5): 41.1 ± 1.13%
NC(=O)[C@H]1CCN(c2ncnc(N)c2F)C[C@@H]1N1CCC[C@@H](Nc2cc(Cl)cc(C(F)(F)F)c2)C1=O  grade ≥3 lymphopenia (B-cell malignancy patients; oral, 328 mg twice daily, dose): 0%
C[C@H]1CN(C(=O)CC#N)[C@]12CCN(c1ncnc3[nH]ccc13)C2  Cmax at NOAEL (dog male; oral, 0.6 mg/kg repeated daily, 9 months, repeated-dose toxicity study): 270 ng/mL
CCc1ccc(CC/C=C/c2ccc3c(c2)C(=O)CC3)cc1  CK serum activity (Sprague-Dawley rat, male; oral, 450 mg/kg/day, 14 days): 412 U/L
CN1CC[C@@H](c2c(O)cc(O)c3c(=O)cc(-c4ccc(C(F)(F)F)cc4Cl)oc23)[C@@H]1CO  patients with adverse event (measured: Hypotension; AML; oral, 150 mg, intermittent dosing): 25%
CC(=O)N1CCC(Nc2cc(C(=O)NC[C@H](O)CN3CCc4ccccc4C3)ncn2)CC1  deaths (relapsed or refractory MDS CMML AML; oral, 300 mg): 82%
CN1C(=O)[C@@H](NC(=O)c2nnc(Cc3ccccc3)[nH]2)COc2cccnc21  participants with TEAE leading to death (phase I single ascending dose; human, male and female; oral, 100 mg, fasted): 0%
O=S(=O)(Nc1ccccc1)c1ccc(NC(=S)Nc2ccccc2)cc1  blood chemistry level (measured: CHOL; female mouse, blood; oral, 5 mg/kg daily, 14 days): 153 mg/dL
CCN1[C@@H](C(=O)NC23CCC(C(=O)O)(CC2)CC3)[C@H](c2cccc(Cl)c2F)[C@]2(C(=O)Nc3cc(Cl)ccc32)C12CCCCC2  Tinnitus incidence (patients with advanced solid tumours; oral, dose not given, all doses): 4.8%
C[C@@H](NC(=O)N1C(=O)[C@H](Cc2ccnc(N)c2)[C@H]1C(=O)O)C1CCCCC1  incidence of AEs leading to discontinuation (healthy adult Chinese volunteers; continuous intravenous infusion, 0.3 mg/kg/h, 5-day infusion, CTCAE 5.0 grading): 0%
COc1cc2c(Oc3ccc4[nH]c(C)cc4c3F)ccnc2cc1OCC1(N)CC1  Hyperuricaemia incidence (paediatric refractory sarcoma patients; 12 mg): 18.2%
CC1(C)C(/C=C(\Cl)C(F)(F)F)C1C(=O)OC(C#N)c1cccc(Oc2ccccc2)c1 (stereo not shown)  enzyme contribution to clearance (measured: CYP2C8; human, age 5 years): 0.09%
CC(C)(O)c1cc(Nc2cc(Oc3cn(C4CC4)nc3C3CCOCC3)ccn2)ccn1  treatment-emergent adverse events (measured: Vomiting; Japanese patients with advanced cancer; oral, dose not given, any grade): 0%
NCCCC[C@@H]1NC(=O)[C@@H](Cc2c[nH]c3ccccc23)NC(=O)[C@H](c2ccccc2)NC(=O)[C@@H]2C[C@@H](OC(=O)NCCN)CN2C(=O)[C@H](Cc2ccccc2)NC(=O)[C@H](Cc2ccc(OCc3ccccc3)cc2)NC1=O  QTcI change from baseline (healthy volunteers; subcutaneous, 1950 µg twice daily, day 5, 24.00 h): 7.9 ms
Cn1cncc1-c1c(F)cncc1NC(=O)c1c(N)nn2cc(F)cnc12  grade ≥3 white cell decrease incidence (human patients; oral, 220 mg once daily): 0%
O=C(Nc1ccccc1)C1CCN(C(=O)Oc2cccnc2)CC1  subjects with adverse event (measured: reproductive and breast disorders; healthy women; oral, 60 mg, 7 days): 14.3%
Cl.Cn1c(=O)n(CCCCN2CCC3(CC2)OCc2ccccc23)c2ccccc21  brain-to-plasma ratio (dose-normalized AUC ratio; Sprague-Dawley rat, male; intravenous, 10 mg/kg): 0.8 to 1.25
Cc1cccc(-c2[nH]c(CNc3ccccc3F)nc2-c2ccc3ncnn3c2)n1  MTD (human, relapsed/refractory multiple myeloma; oral, twice daily, with: pomalidomide 4 mg): 200 mg
CC(C)n1c(C2CCNCC2)nc2c([N+](=O)[O-])c(Br)c(Br)cc21  related grade ≥3 adverse events (measured: Anemia; AML patients; dose not given, all doses): 3%

Some of these lines once more:
CCc1ccc(CC/C=C/c2ccc3c(c2)C(=O)CC3)cc1  CK serum activity (Sprague-Dawley rat, male; oral, 450 mg/kg/day, 14 days): 412 U/L
CC(=O)c1c(C)c2cnc(Nc3ccc(C4CCN(CCS(C)(=O)=O)CC4)cn3)nc2n(C2CCCC2)c1=O  clearance (human, dose-escalation trial, plasma; oral, 25 mg twice daily, day 1, single dose): 1290 mL/min
COc1cc(C2C3=C(COC3=O)N(CCO)c3cc4c(cc32)CCC4)cc(OC)c1OC (stereo not shown)  body weight (female C57BL/6 mice; intraperitoneal, 100 mg/kg, 0 h, single dose, mean): 23 g
